{"data": "Published values of several laboratories", "ptpB": "Triple specificity protein phosphatase PtpB (ptpB, Mycobacterium tuberculosis, UniProt I6WXK4)", "serotonin receptor-like protein": "serotonin receptor-like protein (Schistosoma mansoni, UniProt A0A173FEI8)", "note": "Each line is one published result; not all experiments were run side by side. Values joined by “and” are separate records of one study, mostly repeats; a detail may differ. Numbers after ± are the reported error.", "UniProt I6WXK4, sequence (whole entry, looked up)": "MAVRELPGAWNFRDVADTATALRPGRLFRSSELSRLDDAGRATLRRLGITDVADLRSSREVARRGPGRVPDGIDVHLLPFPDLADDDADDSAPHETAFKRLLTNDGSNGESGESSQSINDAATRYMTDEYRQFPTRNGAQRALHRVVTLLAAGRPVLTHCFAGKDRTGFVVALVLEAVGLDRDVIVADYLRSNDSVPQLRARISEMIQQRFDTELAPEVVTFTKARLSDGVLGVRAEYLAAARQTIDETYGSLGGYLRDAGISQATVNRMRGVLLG", "UniProt Q7NDN8, sequence (whole entry, unmodified, looked up)": "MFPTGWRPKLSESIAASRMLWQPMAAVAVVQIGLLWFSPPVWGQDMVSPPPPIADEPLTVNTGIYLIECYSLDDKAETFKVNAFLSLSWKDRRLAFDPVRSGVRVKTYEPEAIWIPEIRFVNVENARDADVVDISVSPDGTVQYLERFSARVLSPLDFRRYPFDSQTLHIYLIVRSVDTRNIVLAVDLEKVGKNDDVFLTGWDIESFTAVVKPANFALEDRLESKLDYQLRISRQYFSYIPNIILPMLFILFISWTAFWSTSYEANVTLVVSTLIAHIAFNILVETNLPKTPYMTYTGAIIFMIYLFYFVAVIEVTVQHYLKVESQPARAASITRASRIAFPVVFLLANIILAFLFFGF", "UniProt Q8NET8, sequence (whole entry, unmodified, looked up)": "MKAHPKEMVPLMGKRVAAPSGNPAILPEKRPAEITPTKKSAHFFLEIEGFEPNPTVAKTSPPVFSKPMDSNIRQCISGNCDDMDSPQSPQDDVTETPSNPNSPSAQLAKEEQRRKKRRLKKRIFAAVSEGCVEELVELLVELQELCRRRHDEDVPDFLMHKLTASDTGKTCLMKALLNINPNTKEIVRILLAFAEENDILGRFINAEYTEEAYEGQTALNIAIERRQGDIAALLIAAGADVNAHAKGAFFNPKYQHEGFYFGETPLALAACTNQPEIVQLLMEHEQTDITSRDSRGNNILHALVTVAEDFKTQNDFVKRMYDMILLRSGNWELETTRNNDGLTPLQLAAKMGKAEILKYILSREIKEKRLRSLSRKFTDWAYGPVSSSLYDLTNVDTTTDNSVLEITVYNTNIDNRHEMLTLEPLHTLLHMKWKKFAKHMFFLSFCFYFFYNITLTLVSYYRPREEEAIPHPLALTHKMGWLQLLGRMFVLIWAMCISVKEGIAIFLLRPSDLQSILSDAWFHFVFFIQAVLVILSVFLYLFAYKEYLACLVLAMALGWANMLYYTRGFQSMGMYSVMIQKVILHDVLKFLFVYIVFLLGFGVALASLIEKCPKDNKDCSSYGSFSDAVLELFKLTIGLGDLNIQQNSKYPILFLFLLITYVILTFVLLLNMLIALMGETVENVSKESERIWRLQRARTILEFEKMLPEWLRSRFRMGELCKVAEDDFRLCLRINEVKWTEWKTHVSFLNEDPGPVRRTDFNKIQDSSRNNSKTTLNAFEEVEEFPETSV", "UniProt Q9Y2T6, sequence (whole entry, looked up)": "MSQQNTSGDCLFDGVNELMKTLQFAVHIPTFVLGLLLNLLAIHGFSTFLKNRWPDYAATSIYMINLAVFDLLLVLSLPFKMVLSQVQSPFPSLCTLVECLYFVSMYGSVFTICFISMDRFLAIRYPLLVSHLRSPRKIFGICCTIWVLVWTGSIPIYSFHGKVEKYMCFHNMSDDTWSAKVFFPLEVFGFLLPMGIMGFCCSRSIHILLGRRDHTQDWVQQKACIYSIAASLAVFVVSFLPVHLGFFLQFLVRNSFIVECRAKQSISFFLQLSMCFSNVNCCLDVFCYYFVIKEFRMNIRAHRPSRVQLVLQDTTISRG", "UniProt P21554, sequence (whole entry, looked up)": "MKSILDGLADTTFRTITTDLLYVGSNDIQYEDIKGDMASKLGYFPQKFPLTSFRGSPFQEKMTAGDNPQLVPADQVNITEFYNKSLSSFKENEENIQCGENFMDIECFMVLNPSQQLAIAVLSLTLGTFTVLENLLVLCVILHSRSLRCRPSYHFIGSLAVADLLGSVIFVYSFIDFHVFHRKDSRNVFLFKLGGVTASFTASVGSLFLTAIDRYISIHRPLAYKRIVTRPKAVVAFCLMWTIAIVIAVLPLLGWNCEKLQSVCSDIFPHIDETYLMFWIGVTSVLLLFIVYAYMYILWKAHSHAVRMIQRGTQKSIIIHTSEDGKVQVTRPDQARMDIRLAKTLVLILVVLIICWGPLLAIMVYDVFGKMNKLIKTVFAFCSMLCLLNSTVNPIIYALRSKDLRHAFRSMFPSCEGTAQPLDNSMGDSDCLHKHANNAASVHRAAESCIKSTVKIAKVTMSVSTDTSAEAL", "UniProt P30536, sequence (whole entry, looked up)": "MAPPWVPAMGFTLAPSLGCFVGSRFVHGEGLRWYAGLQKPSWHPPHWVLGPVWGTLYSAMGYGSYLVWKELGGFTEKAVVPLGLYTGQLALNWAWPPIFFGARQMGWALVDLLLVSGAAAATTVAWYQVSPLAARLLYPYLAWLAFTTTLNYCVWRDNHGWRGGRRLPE", "UniProt P9WPA5, sequence (whole entry, looked up)": "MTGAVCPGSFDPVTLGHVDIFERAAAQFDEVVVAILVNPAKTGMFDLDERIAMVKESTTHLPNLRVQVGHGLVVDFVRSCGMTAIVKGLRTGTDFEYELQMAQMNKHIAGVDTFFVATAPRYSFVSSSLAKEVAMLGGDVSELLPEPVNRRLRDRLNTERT"}
{"Structure (SMILES)": "CN[C@]1(c2ccccc2Cl)CCCCC1=O", "target": "sigma receptor", "assay": "radioligand binding, agonist, radioligand displacement", "setting": "30 µM", "endpoint": "inhibition", "value": "23%"}
{"Structure (SMILES)": "NS(=O)(=O)c1ccc2c3c(cccc13)C(=O)N2", "target": "ptpB", "assay": "enzyme activity, inhibitor", "setting": "concentration not given", "endpoint": "activity", "value": "inactive"}
{"Structure (SMILES)": "CCCCCCCC[C@H]1O[C@H]1C/C=C/C=C/[C@H](O)CC(=O)NC1=C[C@](C)(CC)OC1=O", "target": "Na(+)-translocating NADH-quinone reductase subunit B, whole Na+-NQR complex (nqrB, Vibrio cholerae serotype O1, UniProt Q9KPS2)", "assay": "isothermal titration calorimetry", "setting": "20 °C", "endpoint": "−TΔS", "value": "25 kcal/mol"}
{"Structure (SMILES)": "CN(C)CCc1c[nH]c2ccccc12", "target": "serotonin receptor-like protein", "assay": "cAMP level, agonist, GloSensor luminescence", "how to read": "baseline: 5-HT maximal response", "endpoint": "Emax", "value": "2 ± 1%"}
{"Structure (SMILES)": "C[As](O)O", "target": "ArsV Ensifer adhaerens", "assay": "enzyme activity, substrate, HPLC-ICP-MS", "setting": "together with: NADPH and FAD", "endpoint": "Km", "value": "6.4 µM"}
{"Structure (SMILES)": "CO[C@H]1/C=C/O[C@@]2(C)Oc3c(C)c(O)c4c(O)c(c(/C=N/N5CCN(C)CC5)c(O)c4c3C2=O)NC(=O)/C(C)=C\\C=C\\[C@H](C)[C@H](O)[C@@H](C)[C@@H](O)[C@@H](C)[C@H](OC(C)=O)[C@@H]1C", "target": "dppA (Mycobacterium tuberculosis, UniProt I6X811)", "assay": "thermal shift", "setting": "dose response", "endpoint": "thermal stabilization", "value": "inactive"}
{"Structure (SMILES)": "CC(NC(C)(C)C)C(=O)c1cccc(Cl)c1 (stereo not drawn)", "target": "Proton-gated ion channel (glvI, Gloeobacter violaceus, UniProt Q7NDN8, T256F)", "assay": "proton-gated current, inhibitor, two-electrode voltage clamp", "test system": "Xenopus oocytes", "how to read": "baseline: T214F mutant over wild type", "endpoint": "IC50 shift", "value": "13 fold"}
{"Structure (SMILES)": "CCCc1cc(O)c2c(c1)OC(C)(C)[C@@H]1CCC(C)=C[C@@H]21", "target": "Transient receptor potential cation channel subfamily V member 3 (TRPV3, Homo sapiens, UniProt Q8NET8, L563A)", "assay": "calcium uptake, agonist", "test system": "HEK293S", "setting": "mutant L563A, site 1", "endpoint": "Hill coefficient", "value": "1.88 ± 0.1"}
{"Structure (SMILES)": "COC(=O)[C@@H](NC(=O)c1nn(Cc2ccc(F)cc2)c2ccccc12)C(C)(C)C", "target": "Cannabinoid receptor 1, with Gi2 (CNR1, Homo sapiens, UniProt P21554)", "assay": "GTP turnover, agonist, item: Gi2 Gα subtype", "endpoint": "maximal efficacy", "value": "111%"}
{"Structure (SMILES)": "Oc1ccc2c3c1O[C@H]1[C@@H](O)CC[C@@]4(O)[C@@H](C2)N(CC2CCC2)CC[C@]314", "target": "G-protein coupled receptor 55 (GPR55, Homo sapiens, UniProt Q9Y2T6)", "assay": "β-arrestin recruitment, TANGO luminescence", "setting": "concentration not given", "how to read": "baseline: basal luminescence", "endpoint": "log2 fold change", "value": 0.181}
{"Structure (SMILES)": "NCCc1c[nH]c2ccc(Br)cc12", "target": "serotonin receptor-like protein", "assay": "cAMP level, agonist, GloSensor luminescence", "how to read": "baseline: 5-HT maximal response", "endpoint": "Emax", "value": "65 ± 1%"}
{"Structure (SMILES)": "CC(NS(=O)(=O)c1ccc2c3c(cccc13)C(=O)N2)C1C2CC3CC(C2)CC1C3 (stereo not drawn)", "target": "ptpB", "assay": "enzyme activity, inhibitor", "setting": "concentration not given", "endpoint": "activity", "value": "inactive"}
{"Structure (SMILES)": "CN1CC[C@@]2(C)c3cc(OC(=O)Nc4ccccc4)ccc3N(C)[C@@H]12", "target": "human nicotinic α4β4 receptor", "assay": "radioligand binding", "setting": "10 µM, together with: [3H]epibatidine", "endpoint": "inhibition", "value": "8.3%"}
{"Structure (SMILES)": "C=CCN(CC=C)CCc1c[nH]c2ccc(OC)cc12", "target": "serotonin receptor-like protein", "assay": "cAMP level, agonist, GloSensor luminescence", "how to read": "baseline: 5-HT maximal response", "endpoint": "Emax", "value": "3 ± 1%"}
{"Structure (SMILES)": "C[C@]12CC[C@H]3[C@@H](CC=C4CC(O)CC[C@@]43CO)[C@@H]1CCC2O (stereo partly drawn)", "target": "Translocator protein (TSPO, Homo sapiens, UniProt P30536)", "assay": "cellular thermal shift", "test system": "Huh-7", "setting": "100 µM", "how to read": "baseline: DMSO", "endpoint": "thermal shift", "value": "≤ 10 °C"}
{"Structure (SMILES)": "Cc1ccc2[nH]cc(CCN)c2c1", "target": "serotonin receptor-like protein", "assay": "cAMP level, agonist, GloSensor luminescence", "how to read": "baseline: 5-HT maximal response", "endpoint": "Emax", "value": "81 ± 2%"}
{"Structure (SMILES)": "C[C@]12N[C@H](Cc3ccccc31)c1ccccc12", "target": "NMDA receptor GluN1/GluN2D lacking NTD", "assay": "ion current, inhibitor, oocyte voltage clamp", "setting": "200 nM", "endpoint": "onset time constant", "value": "5.5 ± 0.7 s"}
{"Structure (SMILES)": "Nc1ncnc2c1ncn2[C@@H]1O[C@H](COP(=O)(O)OP(=O)(O)OP(=O)(O)O)[C@@H](O)[C@H]1O", "target": "Phosphopantetheine adenylyltransferase (coaD, Mycobacterium tuberculosis, UniProt P9WPA5)", "assay": "substrate", "setting": "together with: 4'-phosphopantetheine 40 µM", "endpoint": "Km", "value": "43 ± 3 µM"}
{"Structure (SMILES)": "O=C1C=CC(=O)c2ccccc21", "target": "Reaction center protein L chain, QB site (pufL, Cereibacter sphaeroides, UniProt P0C0Y8)", "test system": "Rhodobacter sphaeroides, reaction centres", "setting": "together with: kBP 0 s^-1", "endpoint": "free energy difference", "value": "480 meV"}
{"Structure (SMILES)": "CNS(=O)(=O)c1ccc2c3c(cccc13)C(=O)N2", "target": "ptpB", "assay": "enzyme activity, inhibitor", "setting": "concentration not given", "endpoint": "activity", "value": "inactive"}
{"Structure (SMILES)": "COC(=O)c1cccc(N2N=C(C)C(C(=O)Nc3cccc(C(C)(F)F)c3)C2=O)c1 (stereo not drawn)", "target": "Acetyl-CoA synthetase (Cryptococcus neoformans, UniProt J9VFT1)", "setting": "50 µM", "endpoint": "remaining activity", "value": "104% and 109%"}
{"note": "For quick reference, copied from above:"}
{"Structure (SMILES)": "CNS(=O)(=O)c1ccc2c3c(cccc13)C(=O)N2", "target": "ptpB", "assay": "enzyme activity, inhibitor", "setting": "concentration not given", "endpoint": "activity", "value": "inactive"}
